Assay results from different studies.
Each numbered part is a random draw from the data of one study; scales do not carry over between parts.
UniProt Q13177, sequence (whole entry, looked up): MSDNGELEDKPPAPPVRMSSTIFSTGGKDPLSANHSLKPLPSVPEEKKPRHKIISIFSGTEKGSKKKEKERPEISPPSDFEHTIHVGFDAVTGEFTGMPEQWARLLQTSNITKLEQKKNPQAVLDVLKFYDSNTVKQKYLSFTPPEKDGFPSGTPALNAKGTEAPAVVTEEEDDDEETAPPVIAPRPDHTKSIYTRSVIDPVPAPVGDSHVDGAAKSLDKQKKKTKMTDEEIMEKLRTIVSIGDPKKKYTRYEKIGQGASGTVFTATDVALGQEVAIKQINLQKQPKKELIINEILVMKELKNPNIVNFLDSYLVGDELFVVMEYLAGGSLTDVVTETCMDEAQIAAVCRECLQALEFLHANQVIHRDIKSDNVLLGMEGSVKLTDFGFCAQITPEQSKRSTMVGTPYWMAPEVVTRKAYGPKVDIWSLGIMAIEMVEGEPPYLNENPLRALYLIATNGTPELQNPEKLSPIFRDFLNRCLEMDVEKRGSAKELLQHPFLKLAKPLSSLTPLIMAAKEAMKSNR
UniProt Q9UBE8, sequence (whole entry, looked up): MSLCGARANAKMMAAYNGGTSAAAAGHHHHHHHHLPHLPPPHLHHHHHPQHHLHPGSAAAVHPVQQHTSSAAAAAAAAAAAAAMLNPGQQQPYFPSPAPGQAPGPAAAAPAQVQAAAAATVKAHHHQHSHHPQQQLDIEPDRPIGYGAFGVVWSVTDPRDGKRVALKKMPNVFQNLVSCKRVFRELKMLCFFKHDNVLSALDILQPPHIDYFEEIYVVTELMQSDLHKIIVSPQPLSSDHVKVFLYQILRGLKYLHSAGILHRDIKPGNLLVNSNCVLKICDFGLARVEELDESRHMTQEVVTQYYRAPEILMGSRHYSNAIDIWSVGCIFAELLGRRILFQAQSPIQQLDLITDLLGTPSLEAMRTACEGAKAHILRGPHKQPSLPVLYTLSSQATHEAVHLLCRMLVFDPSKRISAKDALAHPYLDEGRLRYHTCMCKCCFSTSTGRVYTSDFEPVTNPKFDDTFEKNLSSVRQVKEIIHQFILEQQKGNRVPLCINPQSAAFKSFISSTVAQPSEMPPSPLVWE
UniProt P10721, sequence (whole entry, unmodified, looked up): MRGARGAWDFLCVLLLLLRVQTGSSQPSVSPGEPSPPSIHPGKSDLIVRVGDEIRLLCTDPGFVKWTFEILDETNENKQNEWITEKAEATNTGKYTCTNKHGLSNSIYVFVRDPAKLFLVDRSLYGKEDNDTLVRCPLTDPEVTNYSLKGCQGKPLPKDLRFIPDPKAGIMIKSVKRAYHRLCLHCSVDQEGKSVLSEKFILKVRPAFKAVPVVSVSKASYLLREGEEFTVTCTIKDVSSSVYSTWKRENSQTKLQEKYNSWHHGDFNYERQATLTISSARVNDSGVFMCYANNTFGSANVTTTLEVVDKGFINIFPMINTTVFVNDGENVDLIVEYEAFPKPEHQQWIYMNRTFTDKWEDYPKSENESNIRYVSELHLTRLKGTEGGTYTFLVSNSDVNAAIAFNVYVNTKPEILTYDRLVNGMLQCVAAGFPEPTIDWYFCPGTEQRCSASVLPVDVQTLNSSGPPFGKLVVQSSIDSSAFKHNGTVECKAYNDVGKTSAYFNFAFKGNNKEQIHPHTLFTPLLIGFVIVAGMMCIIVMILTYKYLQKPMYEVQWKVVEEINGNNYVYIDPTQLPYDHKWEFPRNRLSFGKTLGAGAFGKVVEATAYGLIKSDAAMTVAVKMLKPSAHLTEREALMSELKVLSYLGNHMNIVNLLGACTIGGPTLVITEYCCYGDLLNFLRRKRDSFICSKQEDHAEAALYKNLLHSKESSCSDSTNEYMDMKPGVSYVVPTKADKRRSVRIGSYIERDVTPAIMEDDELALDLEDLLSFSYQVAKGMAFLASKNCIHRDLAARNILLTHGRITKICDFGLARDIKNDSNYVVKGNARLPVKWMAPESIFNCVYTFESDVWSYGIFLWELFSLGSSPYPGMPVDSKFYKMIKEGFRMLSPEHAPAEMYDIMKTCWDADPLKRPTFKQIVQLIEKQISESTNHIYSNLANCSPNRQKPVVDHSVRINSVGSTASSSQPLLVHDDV
UniProt Q9UPZ9, sequence (whole entry, looked up): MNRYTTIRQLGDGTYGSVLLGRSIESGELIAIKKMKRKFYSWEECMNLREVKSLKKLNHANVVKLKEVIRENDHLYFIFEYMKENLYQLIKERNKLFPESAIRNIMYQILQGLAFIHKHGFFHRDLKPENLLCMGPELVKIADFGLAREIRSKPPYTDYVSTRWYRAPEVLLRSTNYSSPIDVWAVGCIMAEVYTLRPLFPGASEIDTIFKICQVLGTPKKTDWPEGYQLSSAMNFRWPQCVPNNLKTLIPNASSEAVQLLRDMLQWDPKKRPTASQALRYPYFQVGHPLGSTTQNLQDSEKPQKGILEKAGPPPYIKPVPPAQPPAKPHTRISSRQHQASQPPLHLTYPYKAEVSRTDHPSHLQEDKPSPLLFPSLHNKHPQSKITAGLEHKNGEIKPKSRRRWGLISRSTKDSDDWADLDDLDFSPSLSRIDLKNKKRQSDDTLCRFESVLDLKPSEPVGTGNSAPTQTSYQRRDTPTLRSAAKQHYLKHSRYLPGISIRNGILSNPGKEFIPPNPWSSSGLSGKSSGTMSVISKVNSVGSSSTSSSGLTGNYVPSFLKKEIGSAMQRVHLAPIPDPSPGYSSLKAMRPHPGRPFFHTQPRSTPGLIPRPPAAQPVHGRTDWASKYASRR
UniProt Q9NYY3, sequence (whole entry, looked up): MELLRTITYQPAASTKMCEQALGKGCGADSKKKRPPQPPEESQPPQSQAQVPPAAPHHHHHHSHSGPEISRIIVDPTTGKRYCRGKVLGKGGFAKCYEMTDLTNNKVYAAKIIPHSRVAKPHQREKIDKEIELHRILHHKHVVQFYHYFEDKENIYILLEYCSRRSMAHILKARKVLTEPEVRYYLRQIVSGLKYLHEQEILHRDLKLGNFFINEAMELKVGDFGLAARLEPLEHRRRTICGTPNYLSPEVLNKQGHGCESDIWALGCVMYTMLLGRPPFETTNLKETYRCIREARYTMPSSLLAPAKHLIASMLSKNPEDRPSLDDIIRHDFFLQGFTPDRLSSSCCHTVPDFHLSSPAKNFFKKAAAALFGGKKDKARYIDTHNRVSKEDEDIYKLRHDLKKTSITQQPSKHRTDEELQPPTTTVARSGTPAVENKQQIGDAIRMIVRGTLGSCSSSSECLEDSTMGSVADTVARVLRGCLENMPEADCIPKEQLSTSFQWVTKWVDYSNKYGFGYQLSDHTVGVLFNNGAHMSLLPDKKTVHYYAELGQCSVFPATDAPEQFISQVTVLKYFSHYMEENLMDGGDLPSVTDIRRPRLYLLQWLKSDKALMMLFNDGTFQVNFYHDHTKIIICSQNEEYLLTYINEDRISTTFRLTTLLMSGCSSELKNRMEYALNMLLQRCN
UniProt Q05655, sequence (whole entry, looked up): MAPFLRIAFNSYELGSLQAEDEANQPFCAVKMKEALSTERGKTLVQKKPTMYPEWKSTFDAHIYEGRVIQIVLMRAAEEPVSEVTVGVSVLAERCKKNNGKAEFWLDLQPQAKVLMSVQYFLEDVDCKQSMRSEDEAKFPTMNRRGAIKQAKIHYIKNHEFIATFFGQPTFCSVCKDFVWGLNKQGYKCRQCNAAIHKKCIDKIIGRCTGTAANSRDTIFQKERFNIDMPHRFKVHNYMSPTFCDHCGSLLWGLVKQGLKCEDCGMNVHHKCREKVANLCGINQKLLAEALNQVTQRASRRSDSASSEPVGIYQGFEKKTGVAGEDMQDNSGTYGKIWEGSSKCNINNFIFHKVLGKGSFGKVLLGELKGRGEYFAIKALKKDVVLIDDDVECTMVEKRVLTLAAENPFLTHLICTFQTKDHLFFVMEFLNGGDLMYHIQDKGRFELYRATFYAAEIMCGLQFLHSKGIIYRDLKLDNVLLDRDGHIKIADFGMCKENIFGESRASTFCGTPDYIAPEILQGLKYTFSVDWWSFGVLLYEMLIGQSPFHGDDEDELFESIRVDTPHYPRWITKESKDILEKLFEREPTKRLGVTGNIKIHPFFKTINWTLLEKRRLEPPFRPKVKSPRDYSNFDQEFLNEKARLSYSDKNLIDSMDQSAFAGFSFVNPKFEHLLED

Set 1 — species: mouse; matrix: microsomes or S9; concentration: 2 µM; time: 0.5 h
For `COC(=O)c1c(NC(=O)c2ccco2)sc2c1CCC2`, the remaining compound was 1.14%.
With `CSc1[nH]c2c(C(F)(F)F)ccc(C(F)(F)F)c2c(=O)c1C(C)=O` the remaining compound was over 99%.
`Clc1ccccc1Sc1c(C2CC2)n[nH]c1C1CC1` has a remaining compound of 1.55%.

Set 2 — technique: universal PBM; form: double-stranded DNA, one strand shown; matrix: in vitro; concentration: 600 nM; reading: higher = stronger binding
Target: Sal-like protein 4, full length isoform A (SALL4, Homo sapiens, UniProt Q9UJQ4, residues 1-1053)
UniProt Q9UJQ4, sequence (whole entry, looked up): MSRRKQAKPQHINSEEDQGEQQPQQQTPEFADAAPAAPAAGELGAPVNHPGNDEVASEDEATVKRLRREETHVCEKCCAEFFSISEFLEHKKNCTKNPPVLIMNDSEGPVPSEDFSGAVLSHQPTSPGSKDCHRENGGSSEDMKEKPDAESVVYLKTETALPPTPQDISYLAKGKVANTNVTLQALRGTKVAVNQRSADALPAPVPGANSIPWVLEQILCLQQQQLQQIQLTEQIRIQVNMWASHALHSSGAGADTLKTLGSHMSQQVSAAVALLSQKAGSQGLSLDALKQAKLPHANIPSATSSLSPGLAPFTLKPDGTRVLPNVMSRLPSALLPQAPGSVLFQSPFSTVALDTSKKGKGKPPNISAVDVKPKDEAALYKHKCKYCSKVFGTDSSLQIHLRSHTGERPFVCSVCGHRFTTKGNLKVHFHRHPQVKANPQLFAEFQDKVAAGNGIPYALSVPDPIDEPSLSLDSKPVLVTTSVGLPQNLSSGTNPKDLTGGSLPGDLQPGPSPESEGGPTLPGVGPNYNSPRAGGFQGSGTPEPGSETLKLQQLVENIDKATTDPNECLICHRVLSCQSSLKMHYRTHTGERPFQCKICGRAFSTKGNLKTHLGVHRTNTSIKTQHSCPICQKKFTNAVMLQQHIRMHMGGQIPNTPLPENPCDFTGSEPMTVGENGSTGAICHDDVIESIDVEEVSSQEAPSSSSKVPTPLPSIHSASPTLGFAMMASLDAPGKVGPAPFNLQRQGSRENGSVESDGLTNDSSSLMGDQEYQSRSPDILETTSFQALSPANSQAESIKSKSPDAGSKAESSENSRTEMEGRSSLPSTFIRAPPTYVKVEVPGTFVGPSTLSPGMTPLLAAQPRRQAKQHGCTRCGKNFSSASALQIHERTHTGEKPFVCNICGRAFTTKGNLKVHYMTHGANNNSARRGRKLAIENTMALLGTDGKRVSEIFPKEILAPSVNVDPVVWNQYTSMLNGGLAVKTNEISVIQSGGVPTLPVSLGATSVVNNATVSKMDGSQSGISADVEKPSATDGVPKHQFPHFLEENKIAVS
Notes: 8-mer, flanks averaged, mean of replicates
For `GGCGCGAC`, the E-score was -0.183.
For `CACAGTCA`, the E-score was 0.0348.
For `CGCATATC`, the E-score was 0.221.
`GTTGACCA` has an E-score of -0.136.
The E-score of `ATGTAGAC` is reported as 0.082.
`GGCTACCC` gave an E-score of -0.386.
For `AACTTCTG`, the E-score was 0.0556.
With `CTTCCACA` the E-score was -0.0389.

Set 3 — technique: competition with immobilised ligand; concentration: 1 µM
Compound: CN(C)C(=O)Cn1cc(-c2nc(C3(c4ccc(-c5cnc(N)nc5)cc4)CC3)no2)cn1
Tyrosine-protein kinase ABL1, phosphorylated (ABL1, Homo sapiens, UniProt P00519, Q252H); cell-free assay — remaining binding: 100%.
For CDKL5 (Homo sapiens, UniProt O76039); cell-free assay: remaining binding read 82%.
For Tyrosine-protein kinase ABL1, phosphorylated (ABL1, Homo sapiens, UniProt P00519, M351T); cell-free assay: remaining binding read 100%.
For PRKCD (Homo sapiens, UniProt Q05655); cell-free assay: remaining binding read 67%.
MAP2K2 (Homo sapiens, UniProt P36507); cell-free assay — remaining binding: 80%.
For ERBB3 (Homo sapiens, UniProt P21860); cell-free assay: remaining binding read 87%.
EGFR (Homo sapiens, UniProt P00533, del752-759); cell-free assay — remaining binding: 100%.
PLK2 (Homo sapiens, UniProt Q9NYY3); cell-free assay — remaining binding: 93%.
For NEK11 (Homo sapiens, UniProt Q8NG66); cell-free assay: remaining binding read 90%.
The remaining binding was 100% (DCLK3 (Homo sapiens, UniProt Q9C098); cell-free assay).
For PAK2 (Homo sapiens, UniProt Q13177); cell-free assay: remaining binding read 100%.
For NLK (Homo sapiens, UniProt Q9UBE8); cell-free assay: remaining binding read 94%.
It gave 76% for remaining binding (CILK1 (Homo sapiens, UniProt Q9UPZ9); binding).
For LATS2 (Homo sapiens, UniProt Q9NRM7); cell-free assay: remaining binding read 46%.
For MAP4K5 (Homo sapiens, UniProt Q9Y4K4); cell-free assay: remaining binding read 89%.
For KIT (Homo sapiens, UniProt P10721, T670I/V559D); cell-free assay: remaining binding read 100%.

Set 4 — cell line: mouse MPNST tumor cells; technique: high-content nuclear imaging; item: cell number; concentration: 10 µM; time: 12 h; notes: mean of 2 replicates; baseline: plate mean; reading: higher = more cells
`Cc1cc(-n2nc(Cc3cc(F)cc(C(F)(F)F)c3)nc2C)ccc1C(N)=O` has a nuclei count of 1.52 z-score.
With `CN/C(=N\c1ccc(C2=NNC(=O)CC2C)cc1)NC#N` (centres unmarked) the nuclei count was 1.71 z-score.
`Cc1nn(C)c2nc(NNC(=O)Nc3cc(Cl)nc(Cl)c3)cc(C(C)C)c12` gave a nuclei count of 2.37 z-score.

Set 5 — technique: PRP chromatography estimate; matrix: 1,9-decadiene/PBS; pH: 7.4
The logD of `CC(C)C[C@@H]1NC(=O)[C@H](CC(C)C)NC(=O)[C@H](CC(C)C)NC(=O)[C@H](C(C)C)NC(=O)[C@@H](CCC(=O)N2CCCC2)NC(=O)[C@H](Cc2cscn2)NC(=O)[C@H](C)NC1=O` is reported as -1.96.
For `CC(C)C[C@@H]1NC(=O)[C@H](CC(C)C)NC(=O)[C@H](CC(C)C)NC(=O)[C@@H](C)NC(=O)[C@H](C(C)C)NC(=O)[C@H](Cc2cscn2)NC(=O)[C@H](C)NC1=O`, the logD was -2.14.
With `CC(C)C[C@@H]1NC(=O)[C@H](C)NC(=O)[C@@H](CC(C)C)NC(=O)[C@H](C)NC(=O)[C@H](C(C)C)NC(=O)[C@H](CC(C)C)NC(=O)[C@@H](CC(C)C)NC1=O` the logD was -0.73.

Other studies, line by line
`CCCC(=O)Oc1ccc2[nH]c(C(=O)c3cc4ccccc4[nH]3)cc2c1` gave a Gini score of 0.59 (panel of 300 human kinases; 0.5 µM; higher = more selective).
`CC(C)n1cnc(-c2ccc(F)cc2)c1-c1ncc(C(=O)Nc2ccc(N3CCN(C)CC3)cc2)[nH]1` gave a Constipation incidence of 0% (IPF patients; 30 mg once daily, adverse event).

For quick reference, copied from above (set 2):
The E-score of `ATGTAGAC` is reported as 0.082.
`GGCTACCC` gave an E-score of -0.386.
For `AACTTCTG`, the E-score was 0.0556.
For `CGCATATC`, the E-score was 0.221.
For `CACAGTCA`, the E-score was 0.0348.
